Measured values pooled from the literature.
Numbered parts are unrelated; each lists some results of a single study. Changes are numbered by the printed parent chain.

Set 1
Target: RNA binding protein fox-1 homolog 2, RRM domain, GST-SBP tag (RBFOX2, Homo sapiens, UniProt O43251-10, residues 100-194)
Technique: RNA Bind-n-Seq
Molecule type: RNA
Sample: in vitro
Concentration: 365 nM
Notes: natural RNA segment, single round, ends assumed
Relative to: no-protein control
Direction: higher = stronger binding
Endpoint: RBNS enrichment (R)
All sequences stand within: GGGAGUUCUACAGUCCGACGAUC … UGGAAUUCUCGGGUGCCAA
Residues (chain): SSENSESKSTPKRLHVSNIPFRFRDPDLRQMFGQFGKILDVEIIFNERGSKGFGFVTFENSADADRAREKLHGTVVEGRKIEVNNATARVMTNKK
ACGGGAGGAAAAGGCAUUUCCAGCCCAGAACAAGGUCUAAUGCCAAUAAAUGGGAGGAAUGGGUGUAGAGUUGAUGCAGCCAAGAAUGUCCGUCCUCUGGGCGGCACAAG: 0.413
UAGCUUGGGAUACCUUUUUAAAAACACCAGAUAUUAAAAUGUCUGGCAAGGUUAGAAUCAGACUAGAUGAUUUGCUUCUAAAAAUUAGUUUCAGUGAGUCCCAGGGACUA: 0.352
CAGCAAGAAAGUACCCUGUUGGAUAGUCCAGAUGAAGAAGUGGCUCACUAUAUAUCCCUGCAUAGAUUCCUAAUUAUGCCGUUUCUAAAUCUUAACCGAUUUCUUGAACA: 0.36
CUGCUGCUCCAUGCUUUGGCCAAUAAGAUGGGUCUGAAGUUUCAGAGGUACCGACUUGUUCCCUAUGGAAAUCAUUCCUAUCUGGAGUCUCUGACAGACAAAUCUAAGGA: 0.232
UCAUUGGCCCAGCUUGGCGAAAGCGAGGCACACUGCUUACUGCCUUGGGGUUGUGGAGAUGGACCCGUGACCUCGUGGAGGCCGUGUGGGGGCAGCAGCCUGGCCUGUGC: 0.688
AGAAUUUAUUUUAUAAAUACUUUGUUUACAUUUUAGAUUGUACUUGUCUUUAUUUAAAAUGAUGAAUCUAGUCUGAAUCAGCUGUUAUUCCAAGCUAUCAUGCUUAAGCU: 0.778
UUCCUCUGGAGUGAUGCUGUGCCAUGCUGGUCUUUGCUUCUAGUAAUAAAACAUCAAAUUAGGUUUGGAGGGAACUUUGAUCUUCCUAAGAAUUAAAGUUGCCAAAUUAU: 0.492
AUAAUUCUGUUUGCUAAAUGUUGCCUUUAUGCUUUCAAACUGAAUUAAACCCAUUGUGAGGUUGACACUGGGAGGGGCUAGAAGAUUGGUGGGCAGCAGACUAAAGAGUU: 1.1
AAGAGUACAGAGGAGCAAGUUCCCAGAGCAGCAGCCACGGCAUCGUGGCCUGCAGGUGCACCCUCCUCCUCGCCACAGUCAGUCAGUUCCCGUGACAGGAAACGACCUUG: 0.165
CCUCCAAGCGGCCCUGUGUGUUUGACAUGUGAAGCUAUUUGAUAUGCACCAGGUCUCAAGGUUCUCAUUUCUCAGGUGACGUGAUUCUAAGGCAGGAAUUUGAGAGUUCA: 1.18
AGCAAGGCUUCUGUGUACUUGCCUGAAAACAAAGGAAGGUGCUGGUCAUUCCAUUUCUUUUGUUUGAAGCUAAAGAGAUGUGUAGCUCACAGGGGCUACCUUACCAGUAU: 0.462
GCGCCAGCGGUGGAGGCUGAGUCGCAGGACACAUGCCGGCCAGUUAAUUCAUUCUCAGCCAAUGAAGGUUUGUCUAAGCUGCCUGGGUAUCCACGGGACAAAAACAGCAA: 0.288

Set 2
Target: RING finger protein unkempt homolog, zinc fingers 1-6, GST-SBP tag (UNK, Homo sapiens, UniProt Q9C0B0, residues 30-357)
Sequence of UniProt Q9C0B0 (30-357, looked up): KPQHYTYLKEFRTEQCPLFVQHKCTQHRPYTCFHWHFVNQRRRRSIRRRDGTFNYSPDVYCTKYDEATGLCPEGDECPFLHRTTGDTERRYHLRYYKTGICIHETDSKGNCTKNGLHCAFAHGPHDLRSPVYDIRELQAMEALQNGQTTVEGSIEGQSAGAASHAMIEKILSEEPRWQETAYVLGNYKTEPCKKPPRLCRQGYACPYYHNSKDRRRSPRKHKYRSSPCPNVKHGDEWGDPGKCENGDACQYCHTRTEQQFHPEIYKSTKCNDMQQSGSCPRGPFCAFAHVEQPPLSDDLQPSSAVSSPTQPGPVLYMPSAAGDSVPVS
Technique: RNA Bind-n-Seq
Molecule type: RNA
Sample: in vitro
Concentration: not given
Notes: RNA with constant flanks, human and mouse sites, ends assumed
Relative to: input RNA pool
Direction: higher = stronger binding
Endpoint: bound/input enrichment
All sequences stand within: GGGAGUUCUACAGUCCGACGAUC … CAACAGAGGAUUGAGCAUCA
GCAAUAAUAUGUCAAUAAGUUACAUAAAGAUGCCCAUGUGACAGCACCCCCAAUCAGUGGCUUAGAGGGCUUAAAAAUGCUGUAUUUAUUUUUAAAACUUUGGCUUAAAGGCAUAAGAAG: 0.326 ratio
UCUUUGGCUAACACCCAGCCCCGAGGGCCCCCAGCCUCAUCUCCGGCUCCAGCCCCUAAGUUUUCUCCAGUGACUCCUAAGUUUACUCCUGUGGCUUCCAAGUUCAGUCCUGGAGCCCCA: 0.25 ratio
ACGUGAUUUGGAGAGAGGUGUGGAAAUCUGUAUUGCAACACCUGGAAGACUGAUUGACUUUUUAGAGUGUGGAAAAACCAAUCUGAGAAGAACAACCUACCUUGUCCUUGAUGAAGCAGA: 0.17 ratio
UCUGUGGAAACAUCUGUAGAUCUAAAAACAACAGACACUUCUCACAUACAAGGAAGUAGUGCUGUGGAGGAAAGCUGGGAAUCUAUGUUUAAUGAUGAUGGUGAUUGUGUAGAUCCACGU: 0.323 ratio
UCCAUGACGACCCCUCAUGACAUCAGACUUCAUGGGUCAUCGGUCACUCCGGCUUUUGUUGAAUUUGACACAUCCCUUGAAGGCUUUGGUUGCCUGUUUCUGCCCAGCUUGGCUCCCCAU: 0.227 ratio
GUGGAUGACGAUGACUACUUCCUCUGCCUUCCUUCCAAUACGAAGUUUGUGGCGUUGGCCUGCAAUGAGAAGUGGAUUUAUAAUGAUUCCGAUGGAGGGACGGCUUGGGUUUCCCAAGAG: 0.274 ratio
AUAAUAAGGGCUGAUUGUUUUCUCAUAGCUGUUUACAAUGAACGCUGAUGCUGUCUAAAGGAGCGAUGUUUGGCGUUGCUGUGCAGCGGGUGGGCAGCAGGUGGCGAUGUUGCUCCUCCC: 8.88 ratio
GUCACUUGUGUUGCUGCCUCUCCUCACAAGGACUCUGUGUUUCUUUCAUGCAGCGAGGACAAUAGAAUUUUACUCUGGGAUACCCGCUGUCCCAAGCCAGCAUCACAGAUUGGCUGCAGU: 0.573 ratio
GCAAGAGUUCUGUCCUUUGGCUUGUAUAGGUUAUCUGUUGCUGUGUAAGAAACCACCUGCAAUGGCGAGGGCUUCUCUCGGUGGGGAUUCAGGAGCUGCUGAGCAUGGAGACUUUAGCAU: 0.474 ratio
UUUGAUGUCAUGGUGAUGCCUAAUCUCUAUGGUAACAUUGUCAACAACGUCUGUGCAGGGCUAGUUGGAGGCCCAGGCCUUGUGGCUGGGGCCAACUAUGGCCAUGUGUAUGCAGUAUUC: 0.169 ratio
GAAACAUCUCCAGAGACAUCACUGAUCCAAGAUGAAGUUGCCCUCAAGCUGUCUGUAGAAAUCCCUUGCCCGCCUCCAGUUUCCGAAGCUGAUUUAUCCACGGAUGAGAAGGGUGAGGUC: 0.102 ratio

Set 3
Target: Histone acetyltransferase KAT6A, both winged helices, GST fusion (KAT6A, Homo sapiens, UniProt Q92794, residues 1-181)
Technique: protein binding microarray
Molecule type: double-stranded DNA, one strand shown
Sample: in vitro
Concentration: not given
Notes: 8-mer, flanks averaged, mean of 2 arrays, mostly near background
Relative to: not given
Direction: higher = stronger binding
Endpoint: E-score
Construct (chain): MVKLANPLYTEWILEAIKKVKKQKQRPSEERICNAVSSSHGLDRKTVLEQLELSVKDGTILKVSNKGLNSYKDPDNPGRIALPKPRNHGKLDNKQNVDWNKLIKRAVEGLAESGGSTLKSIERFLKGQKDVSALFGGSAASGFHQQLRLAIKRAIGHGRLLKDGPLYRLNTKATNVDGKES
CGGTACTC: 0.144
GCGCCAGA: 0.173
ATTCATAC: 0.107
GACCCAAA: -0.125
CCATAGCA: -0.187
GTCTAGTA: -0.0969
ATAAAAGC: 0.0525
TCAACCCA: -0.202
CTCTGGTC: -0.00194
GAGTATCC: -0.11
ATAAACCG: 0.0459
CTCACTAA: -0.145
CTAAGATA: -0.151
ATTAATTC: -0.00197
AAAAGCTA: -0.184
CCAAAGAA: -0.162
CGACACTC: 0.0618
GCCCATGA: -0.00334
ATGTTAAT: -0.0872
GCTAGCGA: 0.0115
AGGGTCCG: 0.0482
GGTCTTCA: -0.156

Set 4
Target: Fragile X messenger ribonucleoprotein 1, C-terminal low-complexity region (Fmr1, Mus musculus, UniProt P35922)
Technique: RNA Bind-n-Seq
Molecule type: RNA
Sample: in vitro
Concentration: 200 nM
Notes: whole 134-nt RNA, ends assumed
Together with: 150 mM LiCl
Relative to: input library
Direction: higher = stronger binding
Endpoint: log2 enrichment
Each molecule: 7-deaza-guanosine replaces G
All sequences stand within: GGGAGUUCUACAGUCCGACGAUC … UGGAAUUCUCGGGUGUCAAGG
AGUCCUGUGCUACACAUCGUAUGUACCGAAUCGGGAAAAAGGGAAAAAGGGUUUGGGAAAGUAUUAUGUUACGCCGUUCGGAUCUGCACU: -2.86
CAAGUCCUGUGCUACACAUCGUAUGUACCGAAUCGGAAAGGAAAAAGGUUUUUGGAAAGUAUUAUGUUACGCCGUUCGGAUCUGCACUUC: -1.9
GCAGGAAGUAAAAACAAAUGGAAAUGCUUCGGAUAGUGGCAGGGGUGGGGGUUGCCAAGGAAAGGGUGGGAUGGGAGUGGGUAAAGAGUU: 1.18
UGGUUAGUCAACUACUUUGGUUCCUUAUCAGUAGAAGACUCCCUAGAAUGUCUCAGAGCCAUGCUGUCUGCCAACAUCCGUCAGAAUCUG: 0.0392
CUGUGCUACACAUCGUAUGUACCGAAUCGGGGUUUUUGGGGUUUUUGGGGUUUUUUUGGGGAAAGUAUUAUGUUACGCCGUUCGGAUCUG: 1.69
UGGCCCUGGUGGCAUGCGGGGAGGAUGAGGUGGCCUCAUGGAUCGUGGUGGUCCCGGUGGAAUGUUCAGAGGUGGCCGUGGUGGAGACAG: -0.128
CAAGUCCUGUGCUACACAUCGUAUGUACCGAAUCGGGAAAGGGUUUGGGAAAGGGAAAGUAUUAUGUUACGCCGUUCGGAUCUGCACUUC: -1.19
UGUUGAAAUGGGACAGUUGGCAGCGGCUCUGAUGAGCCCGAGAAGAGGCCUGCCCUUGGGUGCGGAGUCUCCCUCCGCACGAUGCUCCCA: -1.84
CCUGUGCUACACAUCGUAUGUACCGAAUCGGGGUUUUUUGGGUUUUUUGGGUUUUUUGGGGAAAGUAUUAUGUUACGCCGUUCGGAUCUG: -1.07
UGGGAGGUGGAUUUUGUUUAUUUUUUUAGCUCAUUUCCAGGGGUGGGAAUUUUUUUUUAAUAUGUGUCAUGAAUAAAGUUGGUUUUGAAA: 0.397
AAGUCCUGUGCUACACAUCGUAUGUACCGAAUCGGGUUUUUUUGGGAAAGGGUGGGAAAGUAUUAUGUUACGCCGUUCGGAUCUGCACUU: -1.87

Set 5
Target: CCNB2, cyclin fold, Cln2 fusion (human)
Technique: yeast growth competition, sequencing
Sample: yeast
Notes: weak parent motif
Relative to: not given
Direction: higher = stronger binding
Endpoint: normalised enrichment score
Parent: REPIN1 docking peptide (human); QSFRGWVALVLHL; partner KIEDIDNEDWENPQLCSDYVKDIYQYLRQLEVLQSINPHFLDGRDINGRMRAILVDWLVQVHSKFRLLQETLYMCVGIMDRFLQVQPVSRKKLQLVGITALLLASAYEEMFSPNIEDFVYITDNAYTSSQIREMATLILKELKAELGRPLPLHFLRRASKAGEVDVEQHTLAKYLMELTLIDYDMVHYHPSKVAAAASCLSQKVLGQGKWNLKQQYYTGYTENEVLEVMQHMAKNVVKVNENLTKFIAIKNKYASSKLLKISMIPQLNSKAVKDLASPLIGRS
QSFRGWVALVLAL [H12A]: 0.293
QSFRGWVALALHL [V10A]: -0.0536
QAFRGWVALVLHL [S2A]: 0.233
QSFRGWAALVLHL [V7A]: 0.505
QSFRGWVALVLHA [L13A]: -0.0176
QSARGWVALVLHL [F3A]: 0.896

Set 6
Target: Sal-like protein 4, full length isoform A (SALL4, Homo sapiens, UniProt Q9UJQ4, residues 1-1053)
Sequence of UniProt Q9UJQ4 (whole entry, looked up): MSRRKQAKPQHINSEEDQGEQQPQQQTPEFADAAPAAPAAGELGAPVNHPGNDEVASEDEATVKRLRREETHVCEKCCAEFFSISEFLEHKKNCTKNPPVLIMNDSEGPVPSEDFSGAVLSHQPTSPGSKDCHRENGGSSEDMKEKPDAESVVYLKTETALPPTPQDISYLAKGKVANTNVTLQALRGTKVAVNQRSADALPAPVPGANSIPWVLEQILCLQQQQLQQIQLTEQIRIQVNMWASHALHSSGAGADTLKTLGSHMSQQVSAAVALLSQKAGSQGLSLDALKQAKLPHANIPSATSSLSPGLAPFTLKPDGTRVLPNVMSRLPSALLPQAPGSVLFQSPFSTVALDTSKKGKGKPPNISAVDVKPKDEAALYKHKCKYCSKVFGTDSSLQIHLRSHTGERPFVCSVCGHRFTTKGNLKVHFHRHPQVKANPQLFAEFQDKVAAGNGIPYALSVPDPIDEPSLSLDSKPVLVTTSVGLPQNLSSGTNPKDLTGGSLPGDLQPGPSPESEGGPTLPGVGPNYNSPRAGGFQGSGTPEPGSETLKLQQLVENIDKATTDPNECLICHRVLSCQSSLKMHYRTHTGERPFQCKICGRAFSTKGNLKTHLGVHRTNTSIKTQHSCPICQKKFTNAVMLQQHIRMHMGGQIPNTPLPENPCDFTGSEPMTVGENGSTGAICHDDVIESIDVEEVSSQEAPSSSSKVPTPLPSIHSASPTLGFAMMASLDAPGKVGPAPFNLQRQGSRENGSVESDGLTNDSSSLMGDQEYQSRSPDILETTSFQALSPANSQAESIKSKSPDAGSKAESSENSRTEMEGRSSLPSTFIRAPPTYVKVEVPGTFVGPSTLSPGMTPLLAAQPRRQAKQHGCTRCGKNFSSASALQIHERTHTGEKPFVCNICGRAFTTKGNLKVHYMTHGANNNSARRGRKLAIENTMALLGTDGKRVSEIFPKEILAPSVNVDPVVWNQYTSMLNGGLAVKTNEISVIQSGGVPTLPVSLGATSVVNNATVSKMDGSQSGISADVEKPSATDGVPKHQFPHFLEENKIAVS
Technique: universal PBM
Molecule type: double-stranded DNA, one strand shown
Sample: in vitro
Concentration: 600 nM
Notes: 8-mer, flanks averaged, mean of replicates
Direction: higher = stronger binding
Endpoint: E-score
CCGTATTA: -0.0436
ACACGGAC: -0.118
CGACATCA: -0.0243
ACAGCACT: -0.0299
ACGAGTGA: -0.143
GCTGAGCC: -0.266
CTTTACTC: 0.139
GGGCTTGA: -0.278
CGTACACG: 0.00717
GCGGTGAC: -0.175
AACTTATT: 0.31
AAGTACTC: -0.0184
GTTCAAAC: 0.0545
CGGTGATC: -0.216
ACTGGCTC: -0.245
CCCAGTAC: -0.26
CACTACCC: -0.23
AGAGCCCG: -0.277
CGATGCCG: -0.314
CAAAGTTG: 0.011
GCTTAGAA: 0.0169
AGGCGGGC: -0.279
CACCCAGA: -0.12
AATCTTAC: 0.277
CAATTAGC: 0.159

Repeated from above (set 6):
GCTGAGCC: -0.266
CTTTACTC: 0.139
GGGCTTGA: -0.278
CGTACACG: 0.00717
GCGGTGAC: -0.175
AACTTATT: 0.31
AAGTACTC: -0.0184
GTTCAAAC: 0.0545
CGGTGATC: -0.216
